Measured values of several laboratories.
Lines come from different studies, so protocols differ.
Target: Serine/threonine-protein kinase PAK 1 (PAK1, Homo sapiens, UniProt Q13153)

| Structure (SMILES) | test | conditions | measurement | result |
| --- | --- | --- | --- | --- |
| CC(C)=CC1OC(C)(C)C2C=C3C(=O)C(Cl)=CC(O)C3C3C(O)C4OC4C(=O)C132 (centres unmarked) | cell-free assay, competition with immobilised ligand | 10 µM | remaining binding | 96% |
| COc1ccc(C(=O)/C=C/c2ccccc2-c2c[nH]c3ccc(C#N)cc23)c(O)c1 | enzyme activity, inhibitor | 20 µM | inhibition | -7% |
| CC(=O)N1c2ccc(-c3ccc(CNC(=O)c4cn5cc(-c6cnc(N)nc6)nc(N6CCOCC6)c5n4)cc3)cc2CC[C@@H]1C | KINOMEscan | 10 µM | remaining binding | 100% |
| NC(=O)[C@@H](O)C[C@H]1CCc2sc3ncnc(O[C@H]4CC[C@H](N5CCOCC5)CC4)c3c21 | enzyme activity, inhibitor | 10 µM | inhibition | 8% |
| Cc1cnc2nc1Nc1cccc(c1)COC/C=C/COCc1cc(ccc1OCCN1CCOCC1)N2 | binding | 0.1 µM | remaining binding | 100% |
| C[C@H]1CN(C(=O)c2cn(-c3ccnc(N)n3)c3cc(C#CC4(O)CCCCC4)ccc23)CCN1 | enzyme activity, inhibitor, FRET | 1 µM | inhibition | 25% |
| Nc1ncc2c(n1)-c1c([nH]c3ccc(C4=CCOCC4)cc13)CCC2 | binding, competition with immobilised ligand | 1 µM | remaining binding | 100% |
| COc1ccc(NC(=O)Nc2ccc3c(c2)C(=O)N(C(C)CO)CC(C)C(CN(C)Cc2ccc4c(c2)OCO4)O3)cc1 (centres unmarked) | binding, competition with immobilised ligand | 10 µM | remaining binding | 77% |
| CN1CCN(Cc2ccc(NC(=O)c3cccc(C#Cc4cnc(N)c5ncccc45)c3)cc2C(F)(F)F)CC1 | cell-free assay, competition with immobilised ligand | 50 nM | remaining binding | 84% |
| Cc1cccc(O[C@H]2CCC[C@@H](C(C)CNCc3ccncc3)C2)c1 (relative stereo) | enzyme activity, inhibitor | 1 µM | inhibition | 2% |
| CN1CC[C@@H](COc2cnc(C#N)cc2-c2ccn3nc(NC(=O)C4CC4)cc3c2)C1 | enzyme activity, inhibitor | 1 µM | inhibition | 3% |
| Cc1ccc(-c2c(/C=C(\C#N)C(=O)NC(C)C)n(CCCO)c3ncnc(N)c23)cc1 | cell-free assay, competition with immobilised ligand | 1 µM | remaining binding | 100% |
| CCn1cc(C(=O)O)c(=O)c2c(N)c(F)c(NC3CCCCC3)cc21 | kinase activity | 0.1 µM, with: ATP at Km | inhibition | 2.8% |
| C=CC(=O)N1CCCC(n2c(=O)c3ncccc3n(Cc3ccc(Oc4ccccc4)cc3)c2=O)C1 (centres unmarked) | cell-free assay, competition with immobilised ligand | 1 µM | remaining binding | 100% |
| C=CC(=O)Nc1cccc(-c2cnc3[nH]cc(C(=O)NC(C)(C)C)c3n2)c1 | kinase activity | 0.1 µM | inhibition | 5% |
| C=CC(=O)N1Cc2nc(-c3cc(-c4cc(Cl)cnc4Cl)c(F)cc3F)n(-c3ccncn3)c2C1 | cell-free assay, inhibitor | 1 µM | inhibition | 2.2% |
| COc1cc(Nc2nccc(-c3cnn4nc(OC)ccc34)n2)cc(C(F)(F)F)c1 | binding, competition with immobilised ligand | 1 µM | remaining binding | 99% |

Excerpt of the above:
| Structure (SMILES) | test | conditions | measurement | result |
| --- | --- | --- | --- | --- |
| Cc1ccc(-c2c(/C=C(\C#N)C(=O)NC(C)C)n(CCCO)c3ncnc(N)c23)cc1 | cell-free assay, competition with immobilised ligand | 1 µM | remaining binding | 100% |
| C=CC(=O)Nc1cccc(-c2cnc3[nH]cc(C(=O)NC(C)(C)C)c3n2)c1 | kinase activity | 0.1 µM | inhibition | 5% |
| CC(=O)N1c2ccc(-c3ccc(CNC(=O)c4cn5cc(-c6cnc(N)nc6)nc(N6CCOCC6)c5n4)cc3)cc2CC[C@@H]1C | KINOMEscan | 10 µM | remaining binding | 100% |
